Measurements of several laboratories.
Each line is one published result; not all experiments were run side by side. ± gives the spread as reported.
HLA class I histocompatibility antigen, B alpha chain allele B*08:01: HLA class I histocompatibility antigen, B alpha chain, allele B*08:01 (Homo sapiens, UniProt P01889)
B1: mku (Mycobacterium tuberculosis, UniProt P9WKD9); chain MRAIWTGSIAFGLVNVPVKVYSATADHDIRFHQVHAKDNGRIRYKRVCEACGEVVDYRDLARAYESGDGQMVAITDDDIASLPEERSREIEVLEFVPAADVDPMMFDRSYFLEPDSKSSKSYVLLAKTLAETDRMAIVHFTLRNKTRLAALRVKDFGKREVMMVHTLLWPDEIRDPDFPVLDQKVEIKPAELKMAGQVVDSMADDFNPDRYHDTYQEQLQELIDTKLEGGQAFTAEDQPRLLDEPEDVSDLLAKLEASVKARSKANSNVPTPP

`CC(C)C[C@H](NC(=O)[C@H](CO)NC(=O)CNC(=O)[C@H](CCCCN)NC(=O)[C@@H](NC(=O)[C@H](CC(N)=O)NC(=O)[C@H](CC(N)=O)NC(=O)[C@H](C)NC(=O)[C@@H](N)CCCNC(=N)N)[C@@H](C)O)C(=O)O` has an IC50 of 12.1 µM (HLA class I histocompatibility antigen, B alpha chain allele B*08:01; binding, competitor).
`B1 (mku)` — result for “subunits per oligomer”: 2 (itself; SEC).
For `CC(C)C[C@H](NC(=O)[C@H](CO)NC(=O)[C@H](CC(C)C)NC(=O)[C@@H]1CCCN1C(=O)[C@H](CO)NC(=O)CNC(=O)[C@H](CC(C)C)NC(=O)[C@@H](N)CCCNC(=N)N)C(=O)O`, the IC50 was 32.3 µM (HLA class I histocompatibility antigen, A alpha chain, allele A*24:02 (Homo sapiens, UniProt P04439); binding, competitor).
`COc1nc(N)nc2c1ncn2[C@@H]1O[C@H](CO)[C@@H](O)[C@@H]1O` has an EC90 of 6.33 ± 0.186 µM (SARS-CoV-2; Vero C1008, Omicron BA.5; 48 h).
The IC50 of `CC[C@H](C)[C@H](NC(=O)[C@@H](NC(=O)[C@@H](N)CCCNC(=N)N)[C@@H](C)O)C(=O)N[C@@H](CCCCN)C(=O)N[C@H](C(=O)N[C@@H](Cc1ccccc1)C(=O)N[C@H](C(=O)N[C@H](C(=O)N[C@H](C(=O)O)C(C)C)[C@@H](C)O)[C@@H](C)O)C(C)C` is reported as 1.39 µM (HLA class I histocompatibility antigen, B alpha chain allele B*08:01; binding, competitor).
For `COc1ccc(C[C@@H]2c3cc(Oc4cc(C[C@@H]5c6cc(OC)c(OC)cc6CCN5C)ccc4O)c(OC)cc3CCN2C)cc1`, the EC50 was 36 ± 8.37 µM (SARS-CoV-2; virucidal activity; virus pre-treatment).
For `CC(C)[C@H](NC(=O)[C@@H](NC(=O)[C@@H](NC(=O)[C@@H](NC(=O)[C@@H](NC(=O)CNC(=O)[C@H](CO)NC(=O)[C@@H](N)Cc1ccc(O)cc1)C(C)C)C(C)C)[C@@H](C)O)[C@@H](C)O)C(=O)O`, the IC50 was 1.24 µM (HLA class I histocompatibility antigen, A alpha chain, allele A*68:02 (Homo sapiens, UniProt P04439); binding, competitor).
`COc1ccc(-c2cc(=O)c3c(OC)cc(OC)cc3o2)cc1` has an EC50 of 51 ± 1.01 µM (SARS-CoV-2; viral replication; post-treatment).

For quick reference, copied from above:
For `COc1ccc(C[C@@H]2c3cc(Oc4cc(C[C@@H]5c6cc(OC)c(OC)cc6CCN5C)ccc4O)c(OC)cc3CCN2C)cc1`, the EC50 was 36 ± 8.37 µM (SARS-CoV-2; virucidal activity; virus pre-treatment).
